Measurements collected from several papers.
Parts stem from different laboratories: compare values within a part only.

Series 1
Target: Sal-like protein 4, full length isoform A (SALL4, Homo sapiens, UniProt Q9UJQ4, residues 1-1053)
UniProt Q9UJQ4, sequence (whole entry, looked up): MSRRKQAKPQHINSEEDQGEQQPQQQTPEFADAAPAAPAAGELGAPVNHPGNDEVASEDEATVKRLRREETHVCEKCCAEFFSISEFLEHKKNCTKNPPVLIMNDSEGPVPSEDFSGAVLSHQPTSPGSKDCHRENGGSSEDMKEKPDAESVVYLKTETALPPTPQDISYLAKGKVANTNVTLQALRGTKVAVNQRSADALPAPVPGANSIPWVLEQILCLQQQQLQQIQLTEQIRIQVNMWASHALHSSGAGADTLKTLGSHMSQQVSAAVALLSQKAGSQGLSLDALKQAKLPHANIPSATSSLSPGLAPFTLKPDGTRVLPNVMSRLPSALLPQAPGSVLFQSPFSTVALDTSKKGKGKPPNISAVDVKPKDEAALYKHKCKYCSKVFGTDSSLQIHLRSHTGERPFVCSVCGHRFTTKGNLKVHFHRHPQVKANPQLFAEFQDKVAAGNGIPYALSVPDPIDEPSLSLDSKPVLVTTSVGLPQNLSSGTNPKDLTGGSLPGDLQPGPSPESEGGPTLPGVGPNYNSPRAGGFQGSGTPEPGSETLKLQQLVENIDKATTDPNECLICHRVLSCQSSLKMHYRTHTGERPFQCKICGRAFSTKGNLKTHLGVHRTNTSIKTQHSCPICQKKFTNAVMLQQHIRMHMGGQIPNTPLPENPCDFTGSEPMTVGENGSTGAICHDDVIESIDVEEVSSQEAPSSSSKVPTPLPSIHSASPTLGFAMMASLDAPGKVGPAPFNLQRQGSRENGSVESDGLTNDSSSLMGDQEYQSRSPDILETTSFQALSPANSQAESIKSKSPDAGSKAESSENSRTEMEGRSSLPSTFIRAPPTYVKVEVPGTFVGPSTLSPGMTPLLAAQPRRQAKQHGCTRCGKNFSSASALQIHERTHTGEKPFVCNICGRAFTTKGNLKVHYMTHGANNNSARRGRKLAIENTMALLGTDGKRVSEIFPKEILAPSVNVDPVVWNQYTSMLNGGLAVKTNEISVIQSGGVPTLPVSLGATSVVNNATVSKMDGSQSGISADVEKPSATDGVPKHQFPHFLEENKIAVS
Method: universal PBM
Form: double-stranded DNA, one strand shown
Matrix: in vitro
Tested at: 600 nM
Notes: 8-mer, flanks averaged, mean of replicates
Direction: higher = stronger binding
With `GATGAACC` the E-score was -0.189.
`CTCGGCGC` has an E-score of -0.34.
The E-score of `AGTCCATC` is reported as -0.0282.
For `ACCGCTAA`, the E-score was 0.151.
`CTTATTAC` has an E-score of 0.303.
For `ACGAGCGA`, the E-score was 0.0336.
With `TAAGTACA` the E-score was 0.252.
With `AACTTAGA` the E-score was 0.0368.
`TATCCTGA` gave an E-score of 0.175.
The E-score of `CAAAACGC` is reported as -0.0401.
`AGTCCAGC` has an E-score of -0.264.
The E-score of `ATACCCGC` is reported as -0.141.
For `TACGCCTA`, the E-score was 0.0627.
`CATTGACC` gave an E-score of 0.126.
For `TCGAATCA`, the E-score was -0.0175.
The E-score of `ACAATGGC` is reported as -0.0257.

Series 2
Target: Centromere-binding protein 1, full length, His-tagged (CBF1, Saccharomyces cerevisiae, UniProt P17106, residues 1-351)
UniProt P17106, sequence (whole entry, looked up): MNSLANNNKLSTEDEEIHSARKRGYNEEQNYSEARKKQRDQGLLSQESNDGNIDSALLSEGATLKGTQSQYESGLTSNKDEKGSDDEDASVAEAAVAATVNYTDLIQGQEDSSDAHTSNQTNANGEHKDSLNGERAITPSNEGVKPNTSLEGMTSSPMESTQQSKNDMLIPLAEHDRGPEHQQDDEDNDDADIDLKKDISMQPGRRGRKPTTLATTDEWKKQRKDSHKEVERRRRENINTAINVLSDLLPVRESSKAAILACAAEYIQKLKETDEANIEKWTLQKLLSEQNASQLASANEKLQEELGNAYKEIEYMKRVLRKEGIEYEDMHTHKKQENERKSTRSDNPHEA
Method: competition protein-binding microarray
Form: double-stranded DNA, one strand shown
Matrix: in vitro
Tested at: 2 µM
Notes: whole 60-bp probe, lowest competitor level
Added: Pho4 competitor, 0.05 µM
Direction: higher = stronger binding
The fluorescence intensity of `AAGTCCTGGCACTTGCATGTGGTTTCGTAGAAGGTAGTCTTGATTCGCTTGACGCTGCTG` is reported as 81.5 a.u.
`CTTTGCTCCATACAGCATGTGGAGCAGGCGTACTTGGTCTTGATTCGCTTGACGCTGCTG` has a fluorescence intensity of 66.4 a.u.
`CTAAAGTATATGACTCACGTGGTCGAAAGAAAGCGGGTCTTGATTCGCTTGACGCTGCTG` gave a fluorescence intensity of 3010 a.u.
The fluorescence intensity of `GAATGCTTCTGTCTCTGCGTGCTTTTCAAAGGAGAAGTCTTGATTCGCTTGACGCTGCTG` is reported as 80.1 a.u.
`GCATTTGTTGGCCATCACGTGAGCCGGGATCTTAAGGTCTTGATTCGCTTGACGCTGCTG` has a fluorescence intensity of 4840 a.u.
`CCTTTTCTGGAGGTACATGTGCGCCCCTGATGAAGAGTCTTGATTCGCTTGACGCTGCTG` gave a fluorescence intensity of 105 a.u.
The fluorescence intensity of `CTAACGAAGGTTTGAACTGTGGGTGACAAGCCAAGTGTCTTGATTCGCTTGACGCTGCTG` is reported as 64.2 a.u.
With `TAATATTTGTAAAAGCACGTGATGGTGCCTTTTTCTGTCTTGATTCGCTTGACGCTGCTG` the fluorescence intensity was 5530 a.u.
The fluorescence intensity of `CCTAACTTCTTTAGGGGCGTGGCAACTGTCGGGACTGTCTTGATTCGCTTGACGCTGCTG` is reported as 64.3 a.u.
For `AAATTACTAAGTTGTACTGTGGGTGACGCCGTATGAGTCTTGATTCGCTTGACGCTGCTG`, the fluorescence intensity was 76.9 a.u.
`AAAGCGGTAATTTGTCACCCTACTTCACATATCTATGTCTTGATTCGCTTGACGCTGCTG` gave a fluorescence intensity of 74.6 a.u.
`CTCGTTCAGACGAGTCACGTCGGTAGCCAGACCGGTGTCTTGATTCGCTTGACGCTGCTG` gave a fluorescence intensity of 105 a.u.
`CTTCTGTAAATTTTTCACGTGGTTTGACGCGCCCCGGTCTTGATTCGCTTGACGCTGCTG` gave a fluorescence intensity of 1180 a.u.
`TGCGCAACAACTTGCCACGTGGGTGTATGTCTAGAAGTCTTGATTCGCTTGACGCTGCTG` gave a fluorescence intensity of 1110 a.u.
`GCAGAAGTAGCCAAAGATGTGACGCTACCGTTGTGAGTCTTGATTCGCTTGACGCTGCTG` gave a fluorescence intensity of 65.9 a.u.
`AAAGCGGTAATTTTTCACGTGATGTCAAATATCTATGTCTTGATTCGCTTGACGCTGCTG` has a fluorescence intensity of 5610 a.u.
For `CCACACTGACCGAGTCACGTGTGTTTATTCTGTTTTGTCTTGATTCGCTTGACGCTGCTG`, the fluorescence intensity was 5230 a.u.
For `CTTTTAGGAATCCATCACGTGATGGGGATATCTACGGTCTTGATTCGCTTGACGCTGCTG`, the fluorescence intensity was 14300 a.u.
With `CTAACGAAGGTTTGTGGTGTGGGTGACAAGCCAAGTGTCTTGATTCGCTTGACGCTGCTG` the fluorescence intensity was 75.7 a.u.
For `CTTCTGTAAATTTGTCACTCGACTTGACGCGCCCCGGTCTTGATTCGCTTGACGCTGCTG`, the fluorescence intensity was 74.5 a.u.
`GTCTTGTCTCATTGTCACGTGTTTTTCCCCACTTCAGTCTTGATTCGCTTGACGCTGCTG` has a fluorescence intensity of 7230 a.u.
`GGGCTCACTTTTAGACGCGTGTTCCATCGGCGTTCGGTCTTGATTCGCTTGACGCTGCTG` has a fluorescence intensity of 70.1 a.u.
For `CTTTCCCGATCTTGCCGTGTGGGTGTAGCACATTTGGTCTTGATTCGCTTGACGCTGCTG`, the fluorescence intensity was 80.9 a.u.
For `ACAACCGTCTATGATGACGTGTTGACATTATCAAACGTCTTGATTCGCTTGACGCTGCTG`, the fluorescence intensity was 99.5 a.u.
`CGTCCTAGCGATTGAGCCGTGGGTGCCATGAGGAAGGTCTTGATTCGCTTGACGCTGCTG` gave a fluorescence intensity of 68.4 a.u.

Series 3
Target: Histone acetyltransferase KAT6A, winged helix 2, GST fusion (KAT6A, Homo sapiens, UniProt Q92794, residues 85-181)
Method: protein binding microarray
Form: double-stranded DNA, one strand shown
Matrix: in vitro
Tested at: not given
Notes: 8-mer, flanks averaged, mean of 2 arrays, mostly near background
Relative to: not given
Direction: higher = stronger binding
Target sequence (chain): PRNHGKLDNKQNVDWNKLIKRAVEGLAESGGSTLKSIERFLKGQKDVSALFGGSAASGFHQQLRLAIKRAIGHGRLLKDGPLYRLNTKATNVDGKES
The E-score of `GTACAGTA` is reported as -0.183.
For `AGCACGAC`, the E-score was -0.0309.
`GAAGGGGC` has an E-score of -0.0301.
For `CTGATCGC`, the E-score was 0.0402.
`CTCCGAAA` has an E-score of 0.0452.
For `ATGAGAAT`, the E-score was 0.027.
With `CAAGATCC` the E-score was 0.0911.
For `GTCGGGAA`, the E-score was 0.108.
With `AAACATAA` the E-score was -0.0936.
The E-score of `ACTAAACG` is reported as -0.127.
For `CAGTGTTC`, the E-score was -0.116.
The E-score of `GCATCGAC` is reported as -0.029.
`CCTCTTTA` gave an E-score of -0.0106.
With `CAAGCATA` the E-score was 0.131.
For `AGTATGTC`, the E-score was -0.156.
`AGTATGAG` has an E-score of -0.0357.
The E-score of `GTCCTGTA` is reported as -0.251.
`CTCAAAAC` gave an E-score of 0.0159.
For `AGCGTCTG`, the E-score was -0.032.
`CTGTGAAA` has an E-score of -0.000695.
For `AAGGGCGA`, the E-score was 0.0633.
With `ATTGATTA` the E-score was 0.0598.
With `ACTGAATA` the E-score was -0.079.
The E-score of `ATCTTGTG` is reported as -0.0703.
`CAGGAGGG` gave an E-score of 0.118.

Series 4
Target: RNA binding protein fox-1 homolog 2, RRM domain, GST-SBP tag (RBFOX2, Homo sapiens, UniProt O43251-10, residues 100-194)
Method: RNA Bind-n-Seq
Form: RNA
Matrix: in vitro
Tested at: 365 nM
Notes: natural RNA segment, single round, ends assumed
Relative to: no-protein control
Direction: higher = stronger binding
Construct (chain): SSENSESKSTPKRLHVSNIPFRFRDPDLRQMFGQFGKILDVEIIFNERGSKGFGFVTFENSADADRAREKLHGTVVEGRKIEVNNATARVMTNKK
For `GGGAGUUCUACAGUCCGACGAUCGGCAGCCCCCACCUCCGUCCUGACCCGACGGGGGCCCGGCCCACUGCCUACCCUCGAGUCCCGCAGCCUUAACAGGAUGGGAUCGAGGGUCCCCAUGGGGUGGCUCAGAGUGGAAUUCUCGGGUGCCAA`, “RBNS enrichment (R)” read 0.159.
For `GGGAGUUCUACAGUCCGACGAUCCCCCUCCCCUUAGCUUUGACUUAGGAAGCCAAGUUUUCUGCAUCAGAUUAUUGCAACAUUUAACCUGAAUUUGUAGAACGGAUGACAUAAAGCAAAUGGAUGUCAAAUGAUGGAAUUCUCGGGUGCCAA`, “RBNS enrichment (R)” read 0.828.
For `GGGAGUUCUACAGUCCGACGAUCGGUUUGGGUGGUGUGCCUGCAGACUUCAUUUGUGCCAAUGUAUUACUGUAGAGUCGCUCUGUUUCCUUCAACUGUAUUUAUUGCUGCGUUUCUCAGCAUAAACUUAUCCCUGGAAUUCUCGGGUGCCAA`, “RBNS enrichment (R)” read 1.45.
`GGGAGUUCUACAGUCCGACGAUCUUGUGAGAAACCUCUUUUCUUUAAAAUUUACAUAAUCACAAGAAAGGAAAGAAUUACAGUUGGACUGAUUGUGACAGUGCCUUGUCGUCCUCUUUGAAACACCCCGUGUUUGGAAUUCUCGGGUGCCAA`: “RBNS enrichment (R)” 0.499.
`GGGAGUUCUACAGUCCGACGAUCCCAAAGGUCAUCCCGGUCCACGGCAGGUCCCCUGUGUGGGGGUCUCGAAACAUGUGCAUGGCGUCUGUACGUGGCAGGUGGCAGGUGGUGUUGGCAAUGGUCCUGGAGGGUGGAAUUCUCGGGUGCCAA`: “RBNS enrichment (R)” 1.93.
For `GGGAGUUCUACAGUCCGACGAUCAGCCUUGGAAGGCUGCUUGCUCAUCUCACACCAUGCCUGGGCCAUGCCUUCCUCACCUCUGGAGCAGCAGCUGGCAGGCACAUCUGCCAUUUGUCCUGGAAUUGUCACGGUGGAAUUCUCGGGUGCCAA`, “RBNS enrichment (R)” read 0.417.
For `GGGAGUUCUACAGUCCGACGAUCAGAGUCUCCCCAGACCAAGGUCAGAAAGGAUGCCCAGAGGUUCCAAGAACAGAGCAACAGCAACGGAACGAUGCUUAGAAGCAAAGGAAAGGUCACUGAUGAGUCCGCAAUGGAAUUCUCGGGUGCCAA`, “RBNS enrichment (R)” read 0.221.
`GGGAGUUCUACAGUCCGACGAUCUUUUUUUCCAAUCUCUGGCUCUUCUGUCAUCUUCCAAGCAGCGUCUGAGAGCUCUGCACGGGCACAGAUGCUGGGUACCUCUUAUGGGUGUGGCAGUAUUACACGAAACAUGGAAUUCUCGGGUGCCAA` — result for “RBNS enrichment (R)”: 0.288.
Under “RBNS enrichment (R)”, `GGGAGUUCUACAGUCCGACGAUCACCAUGUAAACAUUAGGAAUGAACAGAGGCCUUAGGAAUGAAUAGAGAGUUUGCCUUAUACAAUUUCCUGUUACAAAGCUCUCCCUCUCAUGCAAAGUAGGGAACACCUUUGGAAUUCUCGGGUGCCAA` is recorded as 1.12.
Under “RBNS enrichment (R)”, `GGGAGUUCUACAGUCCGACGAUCUUGUGUGGAAAGUCAGAGGAAAAAUGAUCCAGUGGACACUUGGGGAUUAUCUGUCAUUCAAGAUCCUUCCUUCAACCCCAAGGUCAGCUCCCAUCUCAUUUCCAGAAAGGUGGAAUUCUCGGGUGCCAA` is recorded as 0.346.
`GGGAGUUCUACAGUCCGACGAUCAGCCGGGCCCCCUGUGCCUCUAGUAUACUUGUAUUGACUCUCAUAGUUACCCUUUUAGUUUUACUGUGUUCUGUGAAAAUUUGUAAUUGGUUGAGAAUCACUGUGGGCGUUGGAAUUCUCGGGUGCCAA`: “RBNS enrichment (R)” 0.479.
Under “RBNS enrichment (R)”, `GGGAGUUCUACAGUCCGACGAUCUCAUUUGUGUGAUGUGUUUGGCCUUACCAAAGCAAAAGAGGGUGCAAGAAUGUGGGAGUAUGUCUGCCGGUUUCAACACACACAGACAAACACAGCCACACGCGCACACAUGGAAUUCUCGGGUGCCAA` is recorded as 0.422.

A few entries again (series 4):
For `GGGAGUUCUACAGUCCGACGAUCGGCAGCCCCCACCUCCGUCCUGACCCGACGGGGGCCCGGCCCACUGCCUACCCUCGAGUCCCGCAGCCUUAACAGGAUGGGAUCGAGGGUCCCCAUGGGGUGGCUCAGAGUGGAAUUCUCGGGUGCCAA`, “RBNS enrichment (R)” read 0.159.
For `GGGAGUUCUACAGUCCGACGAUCCCCCUCCCCUUAGCUUUGACUUAGGAAGCCAAGUUUUCUGCAUCAGAUUAUUGCAACAUUUAACCUGAAUUUGUAGAACGGAUGACAUAAAGCAAAUGGAUGUCAAAUGAUGGAAUUCUCGGGUGCCAA`, “RBNS enrichment (R)” read 0.828.
For `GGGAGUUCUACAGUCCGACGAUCGGUUUGGGUGGUGUGCCUGCAGACUUCAUUUGUGCCAAUGUAUUACUGUAGAGUCGCUCUGUUUCCUUCAACUGUAUUUAUUGCUGCGUUUCUCAGCAUAAACUUAUCCCUGGAAUUCUCGGGUGCCAA`, “RBNS enrichment (R)” read 1.45.
`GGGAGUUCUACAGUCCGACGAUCUUGUGAGAAACCUCUUUUCUUUAAAAUUUACAUAAUCACAAGAAAGGAAAGAAUUACAGUUGGACUGAUUGUGACAGUGCCUUGUCGUCCUCUUUGAAACACCCCGUGUUUGGAAUUCUCGGGUGCCAA`: “RBNS enrichment (R)” 0.499.
